# Measured values pooled from the literature.
# Lines come from different studies, so protocols differ.
# UniProt Q13188, sequence (whole entry, looked up): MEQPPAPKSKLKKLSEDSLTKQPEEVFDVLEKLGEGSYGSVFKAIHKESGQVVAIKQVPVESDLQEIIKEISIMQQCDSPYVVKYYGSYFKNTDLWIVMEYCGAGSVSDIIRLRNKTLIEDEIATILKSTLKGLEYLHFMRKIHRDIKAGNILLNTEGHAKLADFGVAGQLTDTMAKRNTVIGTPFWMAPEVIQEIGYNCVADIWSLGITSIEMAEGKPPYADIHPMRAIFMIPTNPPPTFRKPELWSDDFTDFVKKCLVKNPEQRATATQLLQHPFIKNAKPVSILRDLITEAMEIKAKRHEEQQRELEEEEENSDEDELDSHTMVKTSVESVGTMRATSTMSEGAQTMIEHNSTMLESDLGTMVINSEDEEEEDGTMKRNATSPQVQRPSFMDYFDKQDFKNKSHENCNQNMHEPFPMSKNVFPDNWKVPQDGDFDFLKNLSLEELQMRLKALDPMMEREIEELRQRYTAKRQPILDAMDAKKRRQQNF
# UniProt P49137, sequence (whole entry, looked up): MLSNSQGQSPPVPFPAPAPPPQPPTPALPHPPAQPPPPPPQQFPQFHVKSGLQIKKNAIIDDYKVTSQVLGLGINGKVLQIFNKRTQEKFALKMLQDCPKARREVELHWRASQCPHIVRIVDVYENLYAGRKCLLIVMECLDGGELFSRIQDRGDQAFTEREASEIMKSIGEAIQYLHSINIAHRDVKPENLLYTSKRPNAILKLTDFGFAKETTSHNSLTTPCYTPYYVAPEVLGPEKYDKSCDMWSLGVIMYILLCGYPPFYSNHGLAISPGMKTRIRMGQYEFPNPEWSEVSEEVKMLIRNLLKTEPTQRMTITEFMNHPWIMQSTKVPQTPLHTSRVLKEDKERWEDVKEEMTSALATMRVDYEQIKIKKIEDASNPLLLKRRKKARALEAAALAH
# UniProt P49286, sequence (whole entry, looked up): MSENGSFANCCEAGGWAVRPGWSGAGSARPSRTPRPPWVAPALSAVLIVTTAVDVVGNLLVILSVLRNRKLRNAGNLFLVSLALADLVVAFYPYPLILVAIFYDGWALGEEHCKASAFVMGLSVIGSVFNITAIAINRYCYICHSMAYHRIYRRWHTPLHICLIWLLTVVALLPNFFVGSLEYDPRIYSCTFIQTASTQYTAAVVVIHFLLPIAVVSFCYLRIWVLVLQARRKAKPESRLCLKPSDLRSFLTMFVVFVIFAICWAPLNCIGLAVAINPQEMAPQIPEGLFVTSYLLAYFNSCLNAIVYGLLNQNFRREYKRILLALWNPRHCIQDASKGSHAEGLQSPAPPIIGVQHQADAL
# UniProt Q96PY6, sequence (whole entry, looked up): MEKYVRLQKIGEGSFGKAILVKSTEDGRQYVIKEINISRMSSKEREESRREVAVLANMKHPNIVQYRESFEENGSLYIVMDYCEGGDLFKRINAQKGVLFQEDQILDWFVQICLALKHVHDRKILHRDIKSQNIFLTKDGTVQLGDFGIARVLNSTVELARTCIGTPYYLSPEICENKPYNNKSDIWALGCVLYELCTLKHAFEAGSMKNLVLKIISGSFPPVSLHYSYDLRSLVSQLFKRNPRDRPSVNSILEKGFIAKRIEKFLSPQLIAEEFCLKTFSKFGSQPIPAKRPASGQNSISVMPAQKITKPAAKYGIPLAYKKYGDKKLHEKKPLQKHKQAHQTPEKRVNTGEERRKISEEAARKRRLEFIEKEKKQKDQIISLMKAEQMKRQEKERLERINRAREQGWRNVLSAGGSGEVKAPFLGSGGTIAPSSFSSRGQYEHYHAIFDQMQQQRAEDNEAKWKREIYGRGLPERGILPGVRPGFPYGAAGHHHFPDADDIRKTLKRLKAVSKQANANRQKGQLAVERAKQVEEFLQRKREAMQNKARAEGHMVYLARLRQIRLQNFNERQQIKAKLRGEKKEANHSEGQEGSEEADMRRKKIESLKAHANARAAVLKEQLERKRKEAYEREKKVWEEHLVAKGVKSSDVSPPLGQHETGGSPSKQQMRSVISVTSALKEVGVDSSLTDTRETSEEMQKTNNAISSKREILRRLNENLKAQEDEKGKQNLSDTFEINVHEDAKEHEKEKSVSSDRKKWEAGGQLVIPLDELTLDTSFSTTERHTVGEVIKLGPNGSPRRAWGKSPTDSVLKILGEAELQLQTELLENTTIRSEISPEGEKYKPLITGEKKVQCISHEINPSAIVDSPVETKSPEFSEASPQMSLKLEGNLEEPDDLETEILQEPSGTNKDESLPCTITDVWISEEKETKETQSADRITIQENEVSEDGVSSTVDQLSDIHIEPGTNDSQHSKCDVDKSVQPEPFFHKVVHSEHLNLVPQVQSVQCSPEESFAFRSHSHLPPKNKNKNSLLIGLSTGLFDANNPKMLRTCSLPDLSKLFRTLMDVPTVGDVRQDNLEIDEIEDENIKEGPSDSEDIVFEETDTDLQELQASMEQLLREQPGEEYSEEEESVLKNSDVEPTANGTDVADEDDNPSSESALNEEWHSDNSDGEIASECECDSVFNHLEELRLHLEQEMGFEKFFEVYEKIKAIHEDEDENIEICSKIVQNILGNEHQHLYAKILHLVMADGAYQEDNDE
# UniProt P54762, sequence (whole entry, looked up): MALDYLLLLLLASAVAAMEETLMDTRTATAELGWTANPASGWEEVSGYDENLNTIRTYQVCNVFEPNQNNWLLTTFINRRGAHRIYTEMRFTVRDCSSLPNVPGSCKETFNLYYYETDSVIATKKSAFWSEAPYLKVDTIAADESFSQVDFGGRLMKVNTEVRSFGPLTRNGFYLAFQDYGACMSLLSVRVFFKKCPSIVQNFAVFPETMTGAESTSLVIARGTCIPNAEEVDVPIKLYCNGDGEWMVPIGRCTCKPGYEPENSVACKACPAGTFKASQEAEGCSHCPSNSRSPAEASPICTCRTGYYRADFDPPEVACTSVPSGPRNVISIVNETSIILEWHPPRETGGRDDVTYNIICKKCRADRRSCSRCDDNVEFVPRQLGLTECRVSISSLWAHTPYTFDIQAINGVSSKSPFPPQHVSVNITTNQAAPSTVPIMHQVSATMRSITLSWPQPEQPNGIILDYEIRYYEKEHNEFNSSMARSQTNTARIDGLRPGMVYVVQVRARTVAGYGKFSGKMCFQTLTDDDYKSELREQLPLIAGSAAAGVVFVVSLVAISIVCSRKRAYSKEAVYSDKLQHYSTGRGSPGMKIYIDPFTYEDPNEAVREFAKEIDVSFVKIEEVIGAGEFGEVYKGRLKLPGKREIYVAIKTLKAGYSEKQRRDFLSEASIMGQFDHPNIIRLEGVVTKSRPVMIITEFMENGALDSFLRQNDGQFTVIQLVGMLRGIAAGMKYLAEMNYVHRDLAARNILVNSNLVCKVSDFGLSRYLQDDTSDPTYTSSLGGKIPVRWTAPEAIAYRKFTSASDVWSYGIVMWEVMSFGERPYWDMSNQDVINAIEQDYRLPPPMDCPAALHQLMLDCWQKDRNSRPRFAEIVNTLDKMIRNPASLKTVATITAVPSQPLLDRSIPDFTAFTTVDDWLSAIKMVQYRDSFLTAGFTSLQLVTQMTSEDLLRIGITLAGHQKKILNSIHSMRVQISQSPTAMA
# UniProt P19525, sequence (whole entry, looked up): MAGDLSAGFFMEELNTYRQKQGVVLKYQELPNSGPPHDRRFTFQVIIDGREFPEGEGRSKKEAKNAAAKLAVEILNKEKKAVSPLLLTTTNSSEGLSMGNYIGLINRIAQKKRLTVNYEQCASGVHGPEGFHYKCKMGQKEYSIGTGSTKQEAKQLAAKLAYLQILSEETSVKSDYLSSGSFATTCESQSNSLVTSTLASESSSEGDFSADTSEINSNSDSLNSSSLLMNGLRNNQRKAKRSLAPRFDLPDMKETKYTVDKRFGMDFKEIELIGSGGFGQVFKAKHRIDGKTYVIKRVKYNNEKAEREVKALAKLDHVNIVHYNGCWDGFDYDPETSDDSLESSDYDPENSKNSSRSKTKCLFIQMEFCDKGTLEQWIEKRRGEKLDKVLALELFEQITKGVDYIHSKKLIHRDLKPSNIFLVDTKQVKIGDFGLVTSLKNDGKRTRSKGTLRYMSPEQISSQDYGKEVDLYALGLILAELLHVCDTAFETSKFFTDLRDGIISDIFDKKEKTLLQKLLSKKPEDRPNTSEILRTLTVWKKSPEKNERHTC
# UniProt Q9SZU7, sequence (whole entry, unmodified, looked up): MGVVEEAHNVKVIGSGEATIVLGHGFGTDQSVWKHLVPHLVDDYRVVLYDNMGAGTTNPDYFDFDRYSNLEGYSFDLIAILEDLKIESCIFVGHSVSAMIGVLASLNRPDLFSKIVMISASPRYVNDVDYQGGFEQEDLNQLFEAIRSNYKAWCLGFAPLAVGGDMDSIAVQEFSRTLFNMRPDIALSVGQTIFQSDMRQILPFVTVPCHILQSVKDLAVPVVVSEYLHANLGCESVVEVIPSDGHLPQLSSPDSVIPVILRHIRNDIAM
Compound,target,assay,setting,measurement,result
COc1cc(-c2cncc3c2CN(C)Cc2cc(N4CCNCC4)ccc2-3)cc(OC)c1OC,"Ribosomal protein S6 kinase alpha-6 (RPS6KA6, Homo sapiens, UniProt Q9UK32)","enzyme activity, inhibitor",1 µM,remaining activity,125%
CCCCC(=O)Nc1ccc(-c2ccc3ncn(CCC)c(=O)c3c2)cn1,"Ephrin type-B receptor 1 (EPHB1, Homo sapiens, UniProt P54762)","binding, competition with immobilised ligand",0.5 µM,remaining binding,100%
Cc1cc2c(cc1N1C(=O)c3cccc4c(Cl)ccc(c34)C1=O)n(C)c(=O)n2C,"Transcription initiation factor TFIID subunit 1, BD2 (TAF1, Homo sapiens, UniProt P21675)","thermal stability, DSF",10 µM,ΔTm,2.2 °C
C=CC(=O)N1CCC(COCC(=O)N2CCN(c3nc(-c4cnc(N)nc4C(F)F)nc(N4CCOC[C@@H]4C)n3)CC2)CC1,"Serine/threonine-protein kinase 3 (STK3, Homo sapiens, UniProt Q13188)","binding, competition with immobilised ligand",1 µM,remaining binding,100%
CN(C)c1nccc(-c2cnn3ncccc23)n1,"Serine/threonine-protein kinase MRCK gamma (CDC42BPG, Homo sapiens, UniProt Q6DT37)",binding,1 µM,remaining binding,100%
C1=C/COCc2cc(ccc2OCCN2CCCC2)Nc2nccc(n2)-c2cccc(c2)COC/1,"Interferon-induced, double-stranded RNA-activated protein kinase (EIF2AK2, Homo sapiens, UniProt P19525)",cell-free assay,0.1 µM,remaining signal,90%
CC(=O)NCCc1c(Cc2ccccc2)[nH]c2ccccc12,"Melatonin receptor type 1B (MTNR1B, Homo sapiens, UniProt P49286)","GTPγS binding, agonist, radiometric",cell membranes,Emax,20%
CC(=O)/C=C/C=C(C)/C=C/C1=C(C)CC(O)CC1(C)C (stereo in doubt),"KAI2 (Arabidopsis thaliana, UniProt Q9SZU7)","thermal stability, DSF",1 µM,ΔTm,-0.41 °C
CNc1ncc2c(/C=C/C(=O)N3CCC(OC)CC3)nn(Cc3cccc(C(F)(F)F)c3)c2n1,"Serine/threonine-protein kinase Nek1 (NEK1, Homo sapiens, UniProt Q96PY6)","enzyme activity, inhibitor, radiometric",1 µM,remaining activity,102%
Cc1cc([C@@H](C)Nc2ccccc2C(=O)O)c2nc(N3CCC(F)(F)CC3)c(C#N)c(=O)n2c1,"MAP kinase-activated protein kinase 2 (MAPKAPK2, Homo sapiens, UniProt P49137)","binding, competition with immobilised ligand",1 µM,remaining binding,58%

# Repeated from above:
Compound,target,assay,setting,measurement,result
CN(C)c1nccc(-c2cnn3ncccc23)n1,"Serine/threonine-protein kinase MRCK gamma (CDC42BPG, Homo sapiens, UniProt Q6DT37)",binding,1 µM,remaining binding,100%
